Published values gathered from unrelated publications.
Every numbered part comes from another study and shows a few of its results, in no order.

Set 1 — technique: protein-binding microarray; molecule type: double-stranded DNA, one strand shown; matrix: in vitro; concentration: 2540 nM top; setting: 60-bp whole probe; with: salmon DNA 0.4 mg/ml; reference: random background probes; reading: higher = stronger binding; constant ends, left off below: GCCTAGCAC … GTCTTGATTCGCTTGACGCTGCTG
Target: Interferon regulatory factor 3, full length, phosphomimetic (IRF3, Homo sapiens, UniProt Q14653, residues 1-427, S386D/S396D/S398D/S402D/T404D/S405D)
Residues (chain): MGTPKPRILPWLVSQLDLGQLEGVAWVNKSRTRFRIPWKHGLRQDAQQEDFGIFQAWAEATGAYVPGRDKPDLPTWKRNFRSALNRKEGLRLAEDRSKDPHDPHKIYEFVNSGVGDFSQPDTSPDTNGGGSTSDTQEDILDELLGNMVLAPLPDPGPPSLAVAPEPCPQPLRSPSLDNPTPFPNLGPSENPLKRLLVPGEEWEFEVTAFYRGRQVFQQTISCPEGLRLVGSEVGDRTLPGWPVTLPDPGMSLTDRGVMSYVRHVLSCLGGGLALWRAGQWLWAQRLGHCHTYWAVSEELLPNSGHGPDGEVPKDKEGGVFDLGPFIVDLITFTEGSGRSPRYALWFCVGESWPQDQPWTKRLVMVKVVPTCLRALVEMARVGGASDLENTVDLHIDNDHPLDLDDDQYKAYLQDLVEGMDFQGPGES
Oligonucleotide | fitted relative affinity [z-score]
TCATAATTCTCTTTTCAACTGTGCTAG | 1.57
TCAGGTTTCCTTTCCCTTTAGTGCTAG | 10.3
TTAGGACTGTTTCTCCTTTAGTGCTAG | 1.64
GACGGTATCCTTCACCTGACGTGCTAG | 1.78
TTAGGTCTCGGTATCGGTAAGTGCTAG | 1.92
TCAAGTCCCACATCTCTGACTGTGCTA | 0.226

Set 2 — technique: RNA Bind-n-Seq; molecule type: RNA; matrix: in vitro; concentration: 365 nM; reference: no-protein control; reading: higher = stronger binding
Target: RNA binding protein fox-1 homolog 2, RRM domain, GST-SBP tag (RBFOX2, Homo sapiens, UniProt O43251-10, residues 100-194)
Setting: natural RNA segment, single round, ends assumed
Constant ends, left off below: GGGAGUUCUACAGUCCGACGAUC … UGGAAUUCUCGGGUGCCAA
Residues (chain): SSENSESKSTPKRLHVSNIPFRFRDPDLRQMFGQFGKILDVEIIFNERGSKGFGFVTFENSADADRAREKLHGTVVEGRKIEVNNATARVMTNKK
Oligonucleotide | RBNS enrichment (R)
CAGGGGCAGAAAACAUCUCCUUCAACCCGUCCCCACUCCUUCCUCUGCAUGACCUUGGGCAAACCCUUGCCCUUUCAAGCCAUCAGCUCCUGCCUCUCUGCCAUGAGGGC | 2.23
CAAUUAUGUGCUGCCCAACAACUAAAUUUGUAAUUUGUUUUCUCUACUUUGAGCAGGGUCUGAAUUUUUUCAUUUAUUUUCUUUUUGCCAGCAGACAGACUUGGGUCUAU | 0.398
UGACCGUCCUGGUGAGGACCACUGACUCAGAUAAUGCACUUUCCCCUCUGAUCCUGGACUCCCCAUGUCUAGUUCAGACCUAUUUCCUGUUCCCUUGAUAGCUUCGGGUC | 1.09
UGCGGCUAGCUGAUUUUGGGGUACUUCAUAGGAACGAGCUGUCUGGAGCACUCACAGGACUCACCCGGGUACGAAGAUUCCAACAGGAUGAUGCUCACAUAUUCUGUGCC | 0.329
CAUGGACCUGUCUCCAGAGAGAGGAGCCUGAAGUUCGUGGGGCGGGACAGCGUCGGCCUGAUUUCCCGUAAAGGUGUGCAGCCUGAGAGACGGGAAGAGGAGGCCUCUGG | 0.465

Set 3 — technique: protein binding microarray; molecule type: double-stranded DNA, one strand shown; matrix: in vitro; concentration: not given; reference: not given; reading: higher = stronger binding
Target: Histone acetyltransferase KAT6A, both winged helices, GST fusion (KAT6A, Homo sapiens, UniProt Q92794, residues 1-181)
Setting: 8-mer, flanks averaged, mean of 2 arrays, mostly near background
Target sequence (chain): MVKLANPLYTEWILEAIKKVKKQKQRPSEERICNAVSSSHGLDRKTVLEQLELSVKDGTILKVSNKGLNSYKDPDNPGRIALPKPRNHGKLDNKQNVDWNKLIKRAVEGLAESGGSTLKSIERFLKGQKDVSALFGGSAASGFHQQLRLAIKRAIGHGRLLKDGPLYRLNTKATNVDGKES
Oligonucleotide | E-score
ATGCTTTG | -0.0611
GTGGCGTA | 0.0162
CTTCGTAC | -0.00819
AAAGAACC | 0.0284
GGCCTATA | -0.086
ATGTACCC | -0.0431

Further values, each from its own experiment
Molecule | target | assay | test system | setting | scale | quantity | result
PhoQ, residues 284 288 289 292 302 303 GNNTDL | PhoP, residues 12 14 15 18 19 SEGLL (Escherichia coli, UniProt P23836) | Sort-seq, refers to: YFP reporter | E. coli | PhoQ-PhoP variant library, with: 10 µM Mg2+ | reference: high Mg2+ state, higher = stronger signaling | fold induction | 4.16

For quick reference, copied from above (set 2):
Oligonucleotide | RBNS enrichment (R)
CAGGGGCAGAAAACAUCUCCUUCAACCCGUCCCCACUCCUUCCUCUGCAUGACCUUGGGCAAACCCUUGCCCUUUCAAGCCAUCAGCUCCUGCCUCUCUGCCAUGAGGGC | 2.23
UGCGGCUAGCUGAUUUUGGGGUACUUCAUAGGAACGAGCUGUCUGGAGCACUCACAGGACUCACCCGGGUACGAAGAUUCCAACAGGAUGAUGCUCACAUAUUCUGUGCC | 0.329
